Results collected from several papers.
Values joined by “and” are separate records of one study, mostly repeats; a detail may differ.

| SMILES | organism | assay | test system | setting | MIC |
| --- | --- | --- | --- | --- | --- |
| CC(C)CCCCCCCCC/C=C/C(=O)N[C@@H](CC(N)=O)C(=O)N[C@H]1CNC(=O)[C@@H]2CCCN2C(=O)[C@H](C(C)C)NC(=O)[C@@H](CN)NC(=O)CNC(=O)[C@H](CC(=O)O)NC(=O)CNC(=O)[C@H](CC(=O)O)NC(=O)[C@H](CC(=O)O)NC(=O)[C@H]2CCCCN2C1=O | Enterococcus | broth microdilution | VRE 155, Mueller-Hinton broth, Mg2+ 10 mg/L | 16 h, together with: Ca2+ 5 mM | 1 µg/mL |
| CC(=O)N[C@@H](CC(C)C)C(=O)N[C@H]1CSSC[C@@H](C(=O)N2CCC[C@H]2C(N)=O)NC(=O)[C@H](CCCCN)NC(=O)[C@H](C(C)C)NC(=O)[C@H](CCCCN)NC(=O)CNC(=O)[C@H](CC(C)C)NC(=O)[C@H](Cc2ccccc2)NC(=O)[C@H](CCCCN)NC(=O)[C@H](CC(C)C)NC(=O)[C@H](CCC(=O)O)NC(=O)[C@H](Cc2ccccc2)NC(=O)[C@H](CCCNC(=N)N)NC(=O)[C@H](CCCCN)NC(=O)[C@H](CC(C)C)NC(=O)[C@H](CC(=O)O)NC(=O)[C@@H]2CCCN2C(=O)[C@H](CCCCN)NC(=O)[C@H](C(C)C)NC(=O)[C@H](CCCCN)NC(=O)[C@H](CCCCN)NC(=O)[C@H](CCCCN)NC1=O | Vibrio alginolyticus | broth dilution | – | 24 h | > 40 µM |
| [O-][N+]1=C(c2ccc(Cl)cc2)C2=NCCCCN2c2ccccc21 | Bacteroides fragilis | – | – | – | 0.5 to 2 µg/mL |
| CSCC[C@H](NC=O)C(=O)N[C@@H](CCCNC(=N)N)C(=O)N[C@H](C(=O)NCC(=O)N[C@@H](CC(N)=O)C(=O)N[C@@H](C)C(=O)N[C@@H](CC(N)=O)C(=O)NCC(=O)N1CCN(c2cc3c(cc2F)c(=O)c(C(=O)O)cn3C2CC2)CC1)[C@@H](C)O | Shigella flexneri | broth dilution | CGMCC 1.187 | – | 50 µM |
| OB(O)c1cnn(-c2cccc(Cl)c2)c1 | Klebsiella aerogenes | bacterial growth | AmpC overproducer clinical isolate | without cefotaxime | > 2050 µg/mL |
| CCCCCCCCCCCCCC(=O)N[C@H]1C(=O)N[C@@H](CN)C(=O)N[C@@H](CO)C(=O)N[C@@H](Cc2ccc(O)cc2)C(=O)O[C@H]1C | Staphylococcus aureus | – | SH1000 | together with: N-acetylsphingosine, molar ratio 1 | 1 µg/mL and 2 µg/mL |
| CN[C@H](CC(C)C)C(=O)N[C@H]1C(=O)N[C@@H](CC(N)=O)C(=O)N[C@H]2C(=O)N[C@H]3C(=O)N[C@H](C(=O)N[C@H](C(=O)O)c4cc(O)cc(O)c4-c4cc3ccc4O)[C@H](O)c3ccc(c(Cl)c3)Oc3cc2cc(c3O[C@@H]2O[C@H](CO)[C@@H](O)[C@H](O)[C@H]2O[C@H]2C[C@](C)(NCc3ccc(OCc4cn(CC(=O)N[C@H](C(=O)N[C@@H](CCN)C(=O)N[C@H]5CCNC(=O)[C@H]([C@@H](C)O)NC(=O)[C@H](CCN)NC(=O)[C@H](CCN)NC(=O)[C@H](CC(C)C)NC(=O)[C@@H](CC(C)C)NC(=O)[C@H](CCN)NC5=O)[C@@H](C)O)nn4)c(OC)c3)[C@H](O)[C@H](C)O2)Oc2ccc(cc2Cl)[C@H]1O | Enterococcus faecalis | broth microdilution | vancomycin-resistant, tryptic soy broth | 20 to 24 h, 37 °C, 0.002% polysorbate 80 | 64 µg/mL |
| O=c1n(CCNCCOS(=O)(=O)c2ccccc2)c(=O)n(S(=O)(=O)c2ccccc2)c(=O)n1S(=O)(=O)c1ccccc1 | Aspergillus fumigatus | microbial growth, broth dilution | – | – | 16 µg/mL |
| [O-][N+]1=C(Cc2ccccc2)C2=NCCCN2c2ccccc21 | Bacteroides spp. and Parabacteroides distasonis | – | – | – | 1 to 4 µg/mL |
| CC(=O)N[C@@H](CC(C)C)C(=O)N[C@H]1CSSC[C@@H](C(=O)N2CCC[C@H]2C(N)=O)NC(=O)[C@H]([C@@H](C)O)NC(=O)[C@H](C(C)C)NC(=O)[C@H]([C@@H](C)O)NC(=O)CNC(=O)[C@H](CC(C)C)NC(=O)[C@H](Cc2ccccc2)NC(=O)[C@H](Cc2ccc(O)cc2)NC(=O)[C@H](CC(C)C)NC(=O)[C@H](CCCCN)NC(=O)[C@H](Cc2ccccc2)NC(=O)[C@H](CCCNC(=N)N)NC(=O)[C@H](CCC(N)=O)NC(=O)[C@H](CC(C)C)NC(=O)[C@H](CCCCN)NC(=O)[C@@H]2CCCN2C(=O)[C@H](CCCCN)NC(=O)[C@H](C(C)C)NC(=O)[C@H](CC(N)=O)NC(=O)[C@H](Cc2ccc(O)cc2)NC(=O)[C@H]([C@@H](C)O)NC1=O | Corynebacterium glutamicum | broth dilution | CGMCC strain | 24 h | 1.25 to 2.5 µM |
| O=[N+]([O-])c1ccc(C2=[N+]([O-])c3ccccc3N3CCCN=C23)cc1 | Bacteroides spp. and Parabacteroides distasonis | – | – | – | 0.06 to 0.125 µg/mL |
| CC(=O)N[C@@H](CC(C)C)C(=O)N[C@H]1CSSC[C@@H](C(=O)N2CCC[C@H]2C(N)=O)NC(=O)[C@H]([C@@H](C)O)NC(=O)[C@H](C(C)C)NC(=O)[C@H]([C@@H](C)O)NC(=O)CNC(=O)[C@H](CC(C)C)NC(=O)[C@H](Cc2ccccc2)NC(=O)[C@H](Cc2ccc(O)cc2)NC(=O)[C@H](CC(C)C)NC(=O)[C@H](CCCCN)NC(=O)[C@H](Cc2ccccc2)NC(=O)[C@H](CCCNC(=N)N)NC(=O)[C@H](CCC(N)=O)NC(=O)[C@H](CC(C)C)NC(=O)[C@H](CCCCN)NC(=O)[C@@H]2CCCN2C(=O)[C@H](CCCCN)NC(=O)[C@H](C(C)C)NC(=O)[C@H](CCCCN)NC(=O)[C@H](Cc2ccc(O)cc2)NC(=O)[C@H]([C@@H](C)O)NC1=O | Vibrio alginolyticus | broth dilution | – | 24 h | 10 to 20 µM |
| C[N+]1=C2C(c3ccc(Cl)cc3)=[N+]([O-])c3ccccc3N2CCC1 | Bacteroides spp. and Parabacteroides distasonis | – | – | – | 2 to 8 µg/mL |
| CC[C@H](C)[C@H](NC(=O)[C@H](CCCCN)NC(=O)[C@H](CCCCN)NC(=O)[C@H](Cc1ccccc1)NC(=O)[C@H](Cc1ccccc1)NC(=O)[C@H](CCCCN)NC(=O)[C@H](CCCCN)NC(=O)[C@H](Cc1ccccc1)NC(=O)[C@H](CCCNC(=N)N)NC(=O)[C@@H](N)CCCCN)C(=O)N[C@@H](CCCCN)C(=O)N[C@@H](CCCCN)C(=O)N[C@@H](CO)C(=O)N[C@H](C(=O)N[C@@H](CCCCN)C(=O)N[C@@H](CCCCN)C(=O)N[C@@H](CCCNC(=N)N)C(=O)N[C@H](C(=O)N[C@@H](CCCCN)C(=O)N[C@@H](CCCCN)C(=O)N[C@@H](CC(C)C)C(=O)N[C@@H](Cc1ccccc1)C(=O)N[C@@H](CCCCN)C(=O)N[C@@H](CCCCN)C(=O)N1CCC[C@H]1C(=O)N[C@@H](CCCNC(=N)N)C(=O)N[C@H](C(=O)N[C@H](C(=O)N1CCC[C@H]1C(=O)N[C@H](C(=O)N[C@@H](CO)C(=O)N[C@H](C(=O)N1CCC[C@H]1C(=O)N[C@@H](Cc1ccccc1)C(=O)O)[C@@H](C)CC)[C@@H](C)CC)[C@@H](C)CC)C(C)C)C(C)C)C(C)C | Pseudomonas aeruginosa | broth microdilution | P1 clinical isolate | 20 h | 4 µg/mL |
| CCCCCCCC(=O)NCCCC[C@H](NC(=O)CCCCCCC)C(=O)N[C@@H](CCCCNC(=O)CCCCCCC)C(=O)NCC(=O)NCC(=O)NCC(=O)N[C@@H](CS)C(=O)N[C@@H](CCCNC(=N)N)C(=O)N[C@@H](CCCCN)C(=O)N1CCC[C@H]1C(=O)N[C@@H](CS)C(=O)N[C@@H](CCCNC(=N)N)C(=O)N[C@@H](CCCCN)C(=O)N1CCC[C@H]1C(=O)N[C@@H](CS)C(=O)N[C@@H](CCCNC(=N)N)C(=O)N[C@@H](CCCCN)C(=O)N1CCC[C@H]1C(=O)N[C@@H](CS)C(=O)N[C@@H](CCCNC(=N)N)C(=O)N[C@@H](CCCCN)C(=O)N1CCC[C@H]1C(N)=O | Candida parapsilosis | broth microdilution | CGMCC 2.399, RPMI-1640 | 48 h, 30 °C | 16 µM |
| C#CCOc1ccc(CN[C@@]2(C)C[C@H](O[C@H]3[C@H](Oc4c5cc6cc4Oc4ccc(cc4Cl)[C@@H](O)[C@@H](NC(=O)[C@@H](CC(C)C)NC)C(=O)N[C@@H](CC(N)=O)C(=O)N[C@H]6C(=O)N[C@H]4C(=O)N[C@H](C(=O)N[C@H](C(=O)NCC(N)=O)c6cc(O)cc(O)c6-c6cc4ccc6O)[C@H](O)c4ccc(c(Cl)c4)O5)O[C@H](CO)[C@@H](O)[C@@H]3O)O[C@@H](C)[C@H]2O)cc1OC | Enterococcus faecalis | broth microdilution | vancomycin-resistant | – | 38 µM |
| CC(C)CCCCCCCCC/C=C/C(=O)N[C@@H](CC(=O)O)C(=O)N[C@H]1CNC(=O)[C@@H]2CCCN2C(=O)[C@H](C(C)C)NC(=O)[C@@H](CN)NC(=O)CNC(=O)[C@H](CC(=O)O)NC(=O)CNC(=O)[C@H](CC(=O)O)NC(=O)[C@H](CC(=O)O)NC(=O)[C@H]2CCCCN2C1=O | Staphylococcus aureus | broth microdilution | MRSA USA300, Mueller-Hinton broth, Mg2+ 10 mg/L | 16 h, 37 °C, together with: Ca2+ 0 mM | > 128 µg/mL |
| CC(=O)N[C@@H](CC(C)C)C(=O)N[C@H]1CSSC[C@@H](C(=O)N2CCC[C@H]2C(N)=O)NC(=O)[C@H]([C@@H](C)O)NC(=O)[C@H](C(C)C)NC(=O)[C@H]([C@@H](C)O)NC(=O)[C@H](CCCCN)NC(=O)[C@H](CC(C)C)NC(=O)[C@H](Cc2ccccc2)NC(=O)[C@H](Cc2ccc(O)cc2)NC(=O)[C@H](CC(C)C)NC(=O)[C@H](CCCCN)NC(=O)[C@H](Cc2ccccc2)NC(=O)[C@H](CCCNC(=N)N)NC(=O)[C@H](CCC(N)=O)NC(=O)[C@H](CC(C)C)NC(=O)[C@H](CCCCN)NC(=O)[C@@H]2CCCN2C(=O)[C@H](CCCCN)NC(=O)[C@H](C(C)C)NC(=O)[C@H](CC(N)=O)NC(=O)[C@H](Cc2ccc(O)cc2)NC(=O)[C@H]([C@@H](C)O)NC1=O | Corynebacterium glutamicum | broth dilution | CGMCC strain | 24 h | 1.25 to 2.5 µM |
| CCCCCCCCCCCC(=O)NCCCC[C@H](NC(=O)CCCCCCCCCCC)C(=O)N[C@@H](CCCCNC(=O)CCCCCCCCCCC)C(=O)NCC(=O)NCC(=O)NCC(=O)N[C@@H](CS)C(=O)N[C@@H](CCCNC(=N)N)C(=O)N[C@@H](CCCCN)C(=O)N1CCC[C@H]1C(=O)N[C@@H](CS)C(=O)N[C@@H](CCCNC(=N)N)C(=O)N[C@@H](CCCCN)C(=O)N1CCC[C@H]1C(N)=O | Candida parapsilosis | broth microdilution | CGMCC 2.399, RPMI-1640 | 48 h, 30 °C | > 128 µM |
| CC(=O)N[C@@H](CC(C)C)C(=O)N[C@H]1CSSC[C@@H](C(=O)N2CCC[C@H]2C(N)=O)NC(=O)[C@H]([C@@H](C)O)NC(=O)[C@H](C(C)C)NC(=O)[C@H]([C@@H](C)O)NC(=O)CNC(=O)[C@H](CCCCN)NC(=O)[C@H](Cc2ccccc2)NC(=O)[C@H](Cc2ccc(O)cc2)NC(=O)[C@H](CCCCN)NC(=O)[C@H](CCC(=O)O)NC(=O)[C@H](Cc2ccccc2)NC(=O)[C@H](CCCNC(=N)N)NC(=O)[C@H](CCCCN)NC(=O)[C@H](CC(C)C)NC(=O)[C@H](CC(=O)O)NC(=O)[C@@H]2CCCN2C(=O)[C@H](CCCCN)NC(=O)[C@H](C(C)C)NC(=O)[C@H](CCCCN)NC(=O)[C@H](CCCCN)NC(=O)[C@H]([C@@H](C)O)NC1=O | Shigella flexneri | broth dilution | CGMCC strain | 24 h | > 40 µM |
| COc1ccc(C2=[N+]([O-])c3ccccc3N3CCCN=C23)cc1 | Bacteroides spp. and Parabacteroides distasonis | – | – | – | 0.5 to 2 µg/mL |

Repeated from above:
| SMILES | organism | assay | test system | setting | MIC |
| --- | --- | --- | --- | --- | --- |
| OB(O)c1cnn(-c2cccc(Cl)c2)c1 | Klebsiella aerogenes | bacterial growth | AmpC overproducer clinical isolate | without cefotaxime | > 2050 µg/mL |
